{"data": "Experimental data of several laboratories", "technique": "steady-state kinetics", "B1": "MCAT R178A (Homo sapiens, UniProt Q8IVS2); chain GQGSQVVGMGRGLLNYPRVRELYAAARRVLGYDLLELSLHGPQETLDRTVHCQPAIFVASLAAVEKLHHLQPSVIENCVAAAGFSVGEFAALVFAGAMEFAEGLYAVKIAAEAMQEASEAVPSGMLSVLGQPQSKFNFACLEAREHCKSLGIENPVCEVSNYLFPDCRVISGHQEALRFLQKNSSKFHFRRTRMLPVSGAFHTRLMEPAVEPLTQALKAVDIKKPLVSVYSNVHAHRYRHPGHIHKLLAQQLVSPVKWEQTMHAIYERKKGRGFPQTFEVGPGRQLGAILKSCNMQAWKSYSAVDVL", "B2": "Nudt8 (Mus musculus, UniProt Q9CR24); chain MLPDGLSAEDEQRCRQLLARTTARLRSRPAAAAVLVPLCLVRGVPALLYTLRSSRLVGRHKGEVSFPGGKCDPDDQDVIHTALRETQEELGLEVPKEHVWGVLQPVYDREKATIVPVLANVGPLDLQSLRPNLEEVDEVFEMSLAHLLQTQNQGYTHFCQGGHFSYTLPVFLHGPHRVWGLTAVITELTLKLLAPGFYQPSLAVPELPRG", "B3": "enzyme P89H (Thermobifida fusca, UniProt Q47RA9); chain MIMIMASKSSPHDLPDVSGLSIAVLGGTGDQGRGLARRFAMAGHEVILGSRSAERAQAVAAELGEGLPVRGMDNAGAAEAGDVVIVAVHWDGHRALLESLKDVLAGKIVVDCVNPLGFDKRGAYALPVEEGSAAEQAAAILPDSRVVAAFHHVSAVLLLDPEVEKVDLDVLVLGDDREATDVVRALAARIPGVRGVYGGRLRNAHQVEAFTANLISINRRYKAHAGIRITDI", "B4": "protein (Shewanella denitrificans, UniProt Q12KT8); chain MIHKLADVQSQNIGDNTKVWQFCVILAGAVIGRNCNICANSLIENDVVIGDNVTIKSGVQIWDGIHIQDDVFIGPNVTFTNDKQPRSKIYPDEYLKTIVKKGASIGANSTILPGILIGENAMVGAGAVITKNVPDNAIVIGNPGRITGYVEANTGVIMPSNNFELKLQMSKVKGVSLHKFHLVNDLRGNLSVGEFEKDIPFTPKRYFTVFGVPNKEVRGEHAHKECKQFLICVSGNCSVLVDDGENREEYVLDSIDKGIYLPPMTWGVQYKYSKDAVLLVFASHYYDSDDYIRDYSTFKQMRQN", "B5": "ERAP1 K528R (Homo sapiens, UniProt Q9NZ08); chain MVFLPLKWSLATMSFLLSSLLALLTVSTPSWCQSTEASPKRSDGTPFPWNKIRLPEYVIPVHYDLLIHANLTTLTFWGTTKVEITASQPTSTIILHSHHLQISRATLRKGAGERLSEEPLQVLEHPRQEQIALLAPEPLLVGLPYTVVIHYAGNLSETFHGFYKSTYRTKEGELRILASTQFEPTAARMAFPCFDEPAFKASFSIKIRREPRHLAISNMPLVKSVTVAEGLIEDHFDVTVKMSTYLVAFIISDFESVSKITKSGVKVSVYAVPDKINQADYALDAAVTLLEFYEDYFSIPYPLPKQDLAAIPDFQSGAMENWGLTTYRESALLFDAEKSSASSKLGITMTVAHELAHQWFGNLVTMEWWNDLWLNEGFAKFMEFVSVSVTHPELKVGDYFFGKCFDAMEVDALNSSHPVSTPVENPAQIREMFDDVSYDKGACILNMLREYLSADAFKSGIVQYLQKHSYKNTKNEDLWDSMASICPTDGVKGMDGFCSRSQHSSSSSHWHQEGVDVKTMMNTWTLQRGFPLITITVRGRNVHMKQEHYMKGSDGAPDTGYLWHVPLTFITSKSDMVHRFLLKTKTDVLILPEEVEWIKFNVGMNGYYIVHYEDDGWDSLTGLLKGTHTAVSSNDRASLINNAFQLVSIGKLSIEKALDLSLYLKHETEIMPVFQGLNELIPMYKLMEKRDMNEVETQFKAFLIRLLRDLIDKQTWTDEGSVSERMLRSQLLLLACVHNYQPCVQRAEGYFRKWKESNGNLSLPVDVTLAVFAVGAQSTEGWDFLYSKYQFSLSSTEKSQIEFALCRTQNKEKLQWLLDESFKGDKIKTQEFPQILTLIGRNPVGYPLAWQFLRKNWNKLVQKFELGSSSIAHMVMGTTNQFSTRTRLEEVKGFFSSLKENGSQLRCVQQTIETIEENIGWMDKNFDKIRVWLQSEKLEHDPEADATG", "B6": "enzyme (Plasmodium falciparum, UniProt Q8ILK1); chain MTNKFNKINKNNYETREAVYYDKGNRINSNKEKEMKEFKEEELKEFFNKWNPFYKEKLNSEIEKKNFINFDGEKKMENGNNEYFNSYNYIHIHEDMIKDEVRTRTYYDSIRKNEHLIKDKIVLDVGCGTGILSFFAATHGAKHVYSIEKSDIIYTAIKIRDENNLTDKVTFLKGLAEEIELPVDKVDIIISEWMGYCLLYENMLDTVLYCRDKWLKEGGLIFPDKAHMYIAGIEDSLYREEKFDFWKNCYDLNFSSVLPIIKEEVVIDYVDRNFVVTDTCCILTLDLNTCTPDQLSFVSPFQLKMIRKDYLHALVIWFDISFSACHTEVNFTTGPYGAHTHWKQIVLYTDHIITAERNETLKGIFALKRNQKNKRHLDMKLHYIFDGVHTKAKSTQLFNIS", "B7": "Tat (Mus musculus, UniProt Q8QZR1); chain WNVRPSDMSNKTFNPIRAIVDNMKVKPNPNKTVISLSIGDPTVFGNLPTDPEVTQAMKDALDSGKYNGYAPSIGYLSSREEVASYYHCPEAPLEAKDVILTSGCSQAIELCLAVLANPGQNILIPRPGFSLYRTLAESMGIEVKLYNLLPEKSWEIDLKQLESLIDEKTACLVVNNPSNPCGSVFSKRHLQKILAVAERQCVPILADEIYGDMVFSDCKYEPMATLSTNVPILSCGGLAKRWLVPGWRLGWILIHDRRDIFGNEIRDGLVKLSQRILGPCTIVQGALKSILQRTPQEFYQDTLSFLKSNADLCYGALSAIPGLQPVRPSGAMYLMVGIEMEHFPEFENDVEFTERLIAEQSVHCLPATCFEYPNFFRVVITVPEVMMLEACSRIQEFCEQHY", "B8": "ldh (Lactococcus cremoris, UniProt A2RKA4); chain MADKQRKKVILVGDGAVGSSYAFALVNQGIAQELGIVDLFKEKTQGDAEDLSHALAFTSPKKIYSADYSDASDADLVVLTSGAPQKPGETRLDLVEKNLRITKDVVTKIVASGFKGIFLVAANPVDILTYATWKFSGFPKNRVVGSGTSLDTARFRQALAEKVDVDARSIHAYIMGEHGDSEFAVWSHANVAGVKLEQWFQENDYLNEAEIVELFESVRDAAYSIIAKKGATFYGVAVALARITKAILDDEHAVLPVSVFQDGQYGVSDCYLGQPAVVGAEGVVNPIHIPLNDAEMQKMEASGAQLKAIIDEAFAKEEFASAVKN", "B9": "Mj-MAT W387F/Y233W (Methanocaldococcus jannaschii, UniProt Q58605); chain MRNIIVKKLDVEPIEERPTEIVERKGLGHPDSICDGIAESVSRALCKMYMEKFGTILHHNTDQVELVGGHAYPKFGGGVMVSPIYILLSGRATMEILDKEKNEVIKLPVGTTAVKAAKEYLKKVLRNVDVDKDVIIDCRIGQGSMDLVDVFERQKNEVPLANDTSFGVGYAPLSTTERLVLETERFLNSDELKNEIPAVGEDIKVMGLREGKKITLTIAMAVVDRYVKNIEEWKEVIEKVRKKVEDLAKKIADGYEVEIHINTADDYERESVYLTVTGTSAEMGDDGSVGRGNRVNGLITPFRPMSMEAASGKNPVNHVGKIYNILANLIANDIAKLEGVKECYVRILSQIGKPINEPKALDIEIITEDSYDIKDIEPKAKEIANKFLDNIMEVQKMIVEGKVTTF", "B10": "protein Y93G (Thermus thermophilus, UniProt Q5SKR5); chain MSAPKPFVIGIAGGTASGKTTLAQALARTLGERVALLPMDHYYKDLGHLPLEERLRVNYDHPDAFDLALYLEHAQALLRGLPVEMPVYDFRAGTRSPRRTPVRPAPVVILEGILVLYPKELRDLMDLKVFVDADADERFIRRLKRDVLERGRSLEGVVAQYLEQVKPMHLHFVEPTKRYADVIVPRGGQNPVALEMLAAKALARLARMGAA", "note": "Lines come from different studies, so protocols differ.", "sequence of UniProt J9VYP5 (whole entry, looked up)": "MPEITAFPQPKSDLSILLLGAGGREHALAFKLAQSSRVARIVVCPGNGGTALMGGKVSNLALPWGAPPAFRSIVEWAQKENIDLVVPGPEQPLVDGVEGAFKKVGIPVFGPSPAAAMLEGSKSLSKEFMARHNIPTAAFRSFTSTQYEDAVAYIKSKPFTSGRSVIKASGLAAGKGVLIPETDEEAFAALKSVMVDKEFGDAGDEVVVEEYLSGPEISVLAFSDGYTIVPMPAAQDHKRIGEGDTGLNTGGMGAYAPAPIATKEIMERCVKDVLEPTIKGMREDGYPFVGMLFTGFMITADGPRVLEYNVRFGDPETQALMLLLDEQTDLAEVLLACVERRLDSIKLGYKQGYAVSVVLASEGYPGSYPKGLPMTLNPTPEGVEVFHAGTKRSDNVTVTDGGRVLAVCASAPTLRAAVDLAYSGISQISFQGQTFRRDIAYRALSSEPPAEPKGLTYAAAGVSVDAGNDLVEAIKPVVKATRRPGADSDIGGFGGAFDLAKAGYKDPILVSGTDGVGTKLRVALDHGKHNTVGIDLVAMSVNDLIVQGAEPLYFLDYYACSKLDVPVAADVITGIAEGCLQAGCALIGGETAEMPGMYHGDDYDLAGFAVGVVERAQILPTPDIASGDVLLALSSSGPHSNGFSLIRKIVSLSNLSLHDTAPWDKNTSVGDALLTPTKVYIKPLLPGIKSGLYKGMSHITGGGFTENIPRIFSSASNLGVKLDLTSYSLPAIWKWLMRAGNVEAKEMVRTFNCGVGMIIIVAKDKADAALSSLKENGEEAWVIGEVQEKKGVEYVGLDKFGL", "sequence of UniProt Q48796 (whole entry, looked up)": "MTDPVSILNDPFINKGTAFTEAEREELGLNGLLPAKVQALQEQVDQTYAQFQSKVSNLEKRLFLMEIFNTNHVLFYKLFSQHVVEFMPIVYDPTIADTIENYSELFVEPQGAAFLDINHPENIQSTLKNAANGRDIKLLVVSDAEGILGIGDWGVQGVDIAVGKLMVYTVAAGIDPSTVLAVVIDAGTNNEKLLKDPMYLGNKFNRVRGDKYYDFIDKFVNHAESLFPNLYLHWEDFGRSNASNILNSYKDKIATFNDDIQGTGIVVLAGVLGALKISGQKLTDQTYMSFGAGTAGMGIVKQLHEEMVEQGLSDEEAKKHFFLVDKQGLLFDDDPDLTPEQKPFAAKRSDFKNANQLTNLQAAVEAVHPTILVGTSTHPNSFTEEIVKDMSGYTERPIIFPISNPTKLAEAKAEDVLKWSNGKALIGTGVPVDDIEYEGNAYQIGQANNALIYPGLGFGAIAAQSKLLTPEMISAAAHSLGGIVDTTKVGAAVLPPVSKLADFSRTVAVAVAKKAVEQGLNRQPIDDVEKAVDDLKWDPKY", "sequence of UniProt P05181 (whole entry, looked up)": "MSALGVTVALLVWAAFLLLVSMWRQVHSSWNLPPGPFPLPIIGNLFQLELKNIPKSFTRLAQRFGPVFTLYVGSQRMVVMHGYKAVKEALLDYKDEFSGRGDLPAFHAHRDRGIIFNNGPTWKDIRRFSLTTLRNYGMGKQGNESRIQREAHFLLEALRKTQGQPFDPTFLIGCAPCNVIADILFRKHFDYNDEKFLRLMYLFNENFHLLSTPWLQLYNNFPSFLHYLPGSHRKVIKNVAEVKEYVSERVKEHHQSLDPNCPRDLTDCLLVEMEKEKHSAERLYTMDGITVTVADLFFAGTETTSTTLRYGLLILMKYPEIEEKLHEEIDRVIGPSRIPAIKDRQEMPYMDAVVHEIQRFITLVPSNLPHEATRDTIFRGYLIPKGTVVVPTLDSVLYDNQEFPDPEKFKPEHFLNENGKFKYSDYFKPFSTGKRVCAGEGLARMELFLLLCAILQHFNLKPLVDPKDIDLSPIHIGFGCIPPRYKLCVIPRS", "sequence of UniProt P42826 (whole entry, looked up)": "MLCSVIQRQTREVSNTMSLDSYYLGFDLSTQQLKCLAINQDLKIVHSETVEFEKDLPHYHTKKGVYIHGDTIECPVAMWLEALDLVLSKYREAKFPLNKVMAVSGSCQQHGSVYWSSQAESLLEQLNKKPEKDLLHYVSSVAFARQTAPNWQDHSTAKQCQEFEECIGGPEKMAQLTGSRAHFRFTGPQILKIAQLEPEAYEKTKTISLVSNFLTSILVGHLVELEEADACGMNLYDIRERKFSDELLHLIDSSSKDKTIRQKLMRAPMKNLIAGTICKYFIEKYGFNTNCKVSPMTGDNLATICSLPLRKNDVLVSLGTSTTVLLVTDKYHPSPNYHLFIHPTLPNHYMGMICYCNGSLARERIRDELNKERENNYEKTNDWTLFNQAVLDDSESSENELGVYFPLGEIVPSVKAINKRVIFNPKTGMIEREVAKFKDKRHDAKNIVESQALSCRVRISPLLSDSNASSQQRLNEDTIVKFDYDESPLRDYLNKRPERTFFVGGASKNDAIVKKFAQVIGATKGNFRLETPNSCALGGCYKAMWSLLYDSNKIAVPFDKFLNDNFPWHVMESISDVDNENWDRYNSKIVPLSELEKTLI", "sequence of UniProt P00813 (whole entry, looked up)": "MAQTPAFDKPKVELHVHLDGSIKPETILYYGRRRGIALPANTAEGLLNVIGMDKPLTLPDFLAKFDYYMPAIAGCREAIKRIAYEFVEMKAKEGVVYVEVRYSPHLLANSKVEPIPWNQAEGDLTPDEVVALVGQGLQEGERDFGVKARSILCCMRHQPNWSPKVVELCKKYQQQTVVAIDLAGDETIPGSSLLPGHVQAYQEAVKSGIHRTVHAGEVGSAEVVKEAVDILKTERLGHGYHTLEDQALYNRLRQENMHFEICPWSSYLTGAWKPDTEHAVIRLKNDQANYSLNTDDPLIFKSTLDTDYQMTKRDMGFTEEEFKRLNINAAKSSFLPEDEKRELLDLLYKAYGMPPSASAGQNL"}
{"Substance": "CYP2C9 (Homo sapiens, UniProt P11712)", "substrate": "Cc1ccc(Cl)c(Nc2ccccc2C(=O)O)c1Cl", "conditions": "pH 7.4, Hill model, CYP2C9, metabolite, not purified", "Km [µM]": 16.7}
{"Substance": "B1 (MCAT R178A)", "substrate": "CC(=O)SCCNC(=O)CCNC(=O)[C@H](O)C(C)(C)COP(=O)(O)OP(=O)(O)OC[C@H]1O[C@@H](n2cnc3c(N)ncnc32)[C@H](O)[C@@H]1OP(=O)(O)O", "conditions": "pH 6.8, 20 °C, labelled substrate, together with: holo-ACP 20 µM", "Km [µM]": 32.9}
{"Substance": "mleA (Oenococcus oeni, UniProt Q48796)", "substrate": "NC(=O)c1ccc[n+]([C@@H]2O[C@H](COP(=O)(O)OP(=O)(O)OC[C@H]3O[C@@H](n4cnc5c(N)ncnc54)[C@H](O)[C@@H]3O)[C@@H](O)[C@H]2O)c1", "conditions": "pH 6, 45 °C, cofactor varied", "Km [µM]": 82}
{"Substance": "B2 (Nudt8)", "substrate": "CC(=O)SCCNC(=O)CCNC(=O)[C@H](O)C(C)(C)COP(=O)(O)OP(=O)(O)OC[C@H]1O[C@@H](n2cnc3c(N)ncnc32)[C@H](O)[C@@H]1OP(=O)(O)O", "conditions": "pH 8.5, together with: 2 mM Mn2+", "Km [µM]": 707}
{"Substance": "B3 (enzyme P89H)", "substrate": "NC(=O)c1ccc[n+](CCO)c1", "conditions": "pH 8, 25 °C", "Km [µM]": 20000}
{"Substance": "enzyme (Saccharomyces cerevisiae, UniProt P42826)", "substrate": "O=C(CO)[C@@H](O)[C@H](O)CO", "conditions": "pH 7.4, 30 °C", "Km [µM]": 210}
{"Substance": "CYP2E1 (Homo sapiens, UniProt P05181)", "substrate": "C=Cc1ccc(F)cc1", "conditions": "pH 7.4, 37 °C", "Km [µM]": 54.2}
{"Substance": "enzyme (Oenococcus oeni, UniProt Q04DP9)", "substrate": "O=[N+]([O-])c1ccc(O[C@@H]2O[C@H](CO)[C@@H](O)[C@H](O)[C@H]2O)cc1", "conditions": "pH 5.5, 37 °C", "Km [µM]": 170}
{"Substance": "ADA (Homo sapiens, UniProt P00813)", "substrate": "Nc1ncnc2c1ncn2[C@@H]1O[C@H](CO)C[C@H]1O", "system": "HEK293, cell homogenate", "conditions": "pH 5.8, 37 °C, not purified", "Km [µM]": 54.9}
{"Substance": "B4 (protein)", "substrate": "Cc1cn([C@H]2C[C@H](O)[C@@H](COP(=O)(O)OP(=O)(O)O[C@H]3O[C@H](C)C(=O)[C@H](O)[C@H]3O)O2)c(=O)[nH]c1=O", "conditions": "pH 7.5, together with: NADPH 0.2 mM", "Km [µM]": 45}
{"Substance": "B5 (ERAP1 K528R)", "substrate": "CC(C)C[C@H](N)C(=O)N[C@@H](CO)C(=O)N[C@@H](CCCNC(=N)N)C(=O)N[C@@H](Cc1c[nH]cn1)C(=O)N[C@@H](Cc1c[nH]cn1)C(=O)N[C@@H](C)C(=O)N[C@@H](Cc1ccccc1)C(=O)N[C@@H](CO)C(=O)N[C@@H](Cc1ccccc1)C(=O)N[C@@H](CCCNC(=N)N)C(=O)O", "conditions": "25 °C", "Km [µM]": 2.3}
{"Substance": "B6 (enzyme)", "substrate": "C[S+](CC[C@H](N)C(=O)[O-])C[C@H]1O[C@@H](n2cnc3c(N)ncnc32)[C@H](O)[C@@H]1O", "conditions": "37 °C", "Km [µM]": 1.44}
{"Substance": "B7 (Tat)", "substrate": "N[C@@H](Cc1ccc(O)cc1)C(=O)O", "conditions": "pH 7, 38 °C, 100 mM phosphate, together with: 10 mM KGA; PLP", "Km [µM]": 1800}
{"Substance": "B8 (ldh)", "substrate": "NC(=O)C1=CN([C@@H]2O[C@H](COP(=O)(O)OP(=O)(O)OC[C@H]3O[C@@H](n4cnc5c(N)ncnc54)[C@H](O)[C@@H]3O)[C@@H](O)[C@H]2O)C=CC1", "conditions": "pH 7, 30 °C, apparent", "Km [µM]": 66}
{"Substance": "B9 (Mj-MAT W387F/Y233W)", "substrate": "CSCC[C@H](N)C(=O)O", "conditions": "55 °C, together with: ATP 2.5 mM, methionine 0.05-1 mM", "Km [µM]": 470}
{"Substance": "GAR synthetase (Cryptococcus neoformans, UniProt J9VYP5)", "substrate": "NCC(=O)O", "conditions": "pH 8, 37 °C, apparent", "Km [µM]": 364}
{"Substance": "B10 (protein Y93G)", "substrate": "Nc1ccn([C@@H]2O[C@H](CO)[C@@H](O)[C@H]2O)c(=O)n1", "conditions": "pH 7.2, 25 °C, KCl 100 mM, together with: ATP 100–200 µM", "Km [µM]": 620}
{"note": "Excerpt of the above:"}
{"Substance": "B6 (enzyme)", "substrate": "C[S+](CC[C@H](N)C(=O)[O-])C[C@H]1O[C@@H](n2cnc3c(N)ncnc32)[C@H](O)[C@@H]1O", "conditions": "37 °C", "Km [µM]": 1.44}
